Experimental data pooled from the literature.
Every numbered part comes from another study and shows a few of its results, in no order.

Sample 1 — method: aptamer microarray, sandwich; form: DNA with 2'F-ANA; sample: in vitro; concentration: 200 nM; with: Cy3 exosite-II aptamer, 400 nM; reading: higher = stronger binding; oligonucleotide: GGTTGGTGTGGTTGG
Target: Prothrombin, mature alpha-thrombin (F2, Homo sapiens, UniProt P00734)
Notes: whole 15-mer aptamer, many near background
Modification | mean fluorescence intensity
2'F-ANA at 3 6 8 13 15 | 808 a.u.
2'F-ANA at 2 5 6 7 8 9 10 13 14 15 | 49.7 a.u.
2'F-ANA at 1 2 3 9 11 12 13 14 | 79.2 a.u.
2'F-ANA at 3 5 6 7 8 10 13 14 | 47 a.u.
2'F-ANA at 4 5 8 11 14 15 | 44.1 a.u.
2'F-ANA at 3 5 6 8 10 11 12 14 15 | 82.6 a.u.

Sample 2 — method: protein binding microarray; form: double-stranded DNA, one strand shown; sample: in vitro; concentration: not given; relative to: not given; reading: higher = stronger binding
Target: Histone acetyltransferase KAT6A, winged helix 2, GST fusion (KAT6A, Homo sapiens, UniProt Q92794, residues 85-181)
Notes: 8-mer, flanks averaged, mean of 2 arrays, mostly near background
Residues (chain): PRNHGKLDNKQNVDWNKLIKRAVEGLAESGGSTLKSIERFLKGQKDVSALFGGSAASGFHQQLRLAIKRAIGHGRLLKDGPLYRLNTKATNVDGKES
Oligonucleotide | E-score
AACGATTG | 0.058
CCAGGTAC | 0.0548
GAGACCCA | -0.0419
GAAAACGA | 0.00392
TAGACAAA | -0.0813
TAGGTGCA | -0.122
CACCTCCC | -0.102
CCCCGAGG | 0.151
AGTGAAGG | -0.0833
AGCTGGAC | -0.0665
AATCGTCA | -0.032
AGCATGGG | -0.104

Sample 3 — method: protein-binding microarray; form: double-stranded DNA, one strand shown; sample: in vitro; concentration: 250 nM; notes: 60-bp whole probe; with: salmon DNA 0.4 mg/ml; relative to: random background probes; reading: higher = stronger binding; all sequences stand within: GCCTAGCAC … GTCTTGATTCGCTTGACGCTGCTG
Target: Interferon regulatory factor 7, full length, phosphomimetic (IRF7, Homo sapiens, UniProt Q92985, residues 1-503, S101K/S471D/S472D/S475D/S476D/S477D/S483D/S484D/S487D)
Residues (chain): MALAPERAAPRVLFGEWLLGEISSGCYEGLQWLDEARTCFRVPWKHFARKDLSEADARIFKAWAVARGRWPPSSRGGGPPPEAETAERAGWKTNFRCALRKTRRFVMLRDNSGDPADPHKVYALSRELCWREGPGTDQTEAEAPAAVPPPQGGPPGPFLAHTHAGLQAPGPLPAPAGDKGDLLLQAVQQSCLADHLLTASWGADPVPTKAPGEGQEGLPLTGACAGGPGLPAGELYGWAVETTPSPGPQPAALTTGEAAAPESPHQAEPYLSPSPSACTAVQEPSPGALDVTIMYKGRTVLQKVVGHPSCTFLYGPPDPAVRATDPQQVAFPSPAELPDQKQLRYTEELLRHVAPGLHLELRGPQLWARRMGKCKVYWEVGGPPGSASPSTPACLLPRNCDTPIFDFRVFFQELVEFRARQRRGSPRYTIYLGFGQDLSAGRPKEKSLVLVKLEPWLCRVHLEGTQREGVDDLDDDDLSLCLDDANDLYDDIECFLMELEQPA
Oligonucleotide | log fluorescence [z-score]
GACCGTATCGGTTTCGGGACGTGCTAG | 4.95
GACGGACTGGGTATCAGGACGTGCTAG | -0.779
TCATTTTCACTTTTCCTACTGTGCTAG | 3.77
CCCTTACCGCATATCGGGGTGTGCTAG | 0.491
GACGGTATCGACTATCGGTACGTGCTA | 0.127
TGGATACTTTGCTGAACATCGTGCTAG | -0.298
GACGGTATCGGACTGCGGACGTGCTAG | -0.214
GACGGTTTCGACTACCGGGACGTGCTA | 5.45
GGCGGTTTCGGTATCGGGACGTGCTAG | 9.92
TTAGGTATCGACTATCGGCTAGTGCTA | 0.2
ATGAGTCTCAATATTAGAGTGTGCTAG | 0.0544
CACGGACTGGACTTTCGGGACGTGCTA | -0.398

Further values, each from its own experiment
Molecule | target | assay | system | conditions | how to read | measurement | result
PhoQ, residues 284 288 289 292 302 303 ASSHFY | PhoP, residues 12 14 15 18 19 MHTVL (Escherichia coli, UniProt P23836) | Sort-seq, refers to: YFP reporter | E. coli | PhoQ-PhoP variant library, with: 10 µM Mg2+ | relative to: high Mg2+ state, higher = stronger signaling | fold induction | 18.9

For quick reference, copied from above (sample 1):
Modification | mean fluorescence intensity
2'F-ANA at 3 5 6 7 8 10 13 14 | 47 a.u.
2'F-ANA at 2 5 6 7 8 9 10 13 14 15 | 49.7 a.u.
2'F-ANA at 3 5 6 8 10 11 12 14 15 | 82.6 a.u.
